Measured values collected from several papers.
Cell line: NCI-H522

| SMILES | test | conditions | how to read | measurement | value |
| --- | --- | --- | --- | --- | --- |
| COc1ccc(C2=Nn3c(NN=C4C(=O)N(Cc5ccccc5)c5ccc(Cl)cc54)nnc3SC2)cc1 | cell growth or viability, SRB | 10 µM | – | inhibition | 35% |
| C1=[N+]2CCCC[N+]3=Cc4ccc5[n]4[Au-]23[n]2c1ccc2-c1nc2ccccc2nc1-5.F[P-](F)(F)(F)(F)F | cell growth | – | – | IC50 | 280 nM |
| CC(=O)OC[C@H]1O[C@@H](Sc2sc(C(=O)c3ccc(C)cc3)c(N)c2-c2nc3ccccc3s2)[C@H](OC(C)=O)[C@@H](OC(C)=O)[C@@H]1OC(C)=O | SRB | 10 µM, 48 h | relative to: untreated | growth | 82.1% |
| COc1cc(CNC(=O)C[C@H](C)CCC=C(C)C)ccc1OCc1cn(-c2ccc(Cl)cc2Cl)nn1 | SRB | 10 µM, 48 h | – | growth percent | 55.4% |
| CC(=C(c1ccc(O)cc1)c1ccc(Cl)cc1)c1ccc(Cl)cc1 | cell growth or viability, SRB | – | – | GI50 | 850 nM |
| CC/C=C\C/C=C\C/C=C\C/C=C\C/C=C\C/C=C\CCC(=O)Nc1ccn(C2OC(CO)C(O)C2(F)F)c(=O)n1 (stereo not shown) | cell growth or viability, SRB | – | – | GI50 | 28 nM |
| COc1cc(CNC(=O)C[C@H](C)CCC=C(C)C)ccc1O | SRB | 10 µM, 48 h | – | growth percent | 86.9% |
| CC(=O)OC[C@H]1O[C@@H](Sc2sc(C(=O)c3ccc(Br)cc3)c(N)c2-c2nc3ccccc3s2)[C@H](OC(C)=O)[C@@H](OC(C)=O)[C@@H]1OC(C)=O | SRB | 10 µM, 48 h | relative to: untreated | growth | 63.8% |
| COc1cc(CNC(=O)C[C@H](C)CCC=C(C)C)ccc1OCc1cn(-c2ccccc2[N+](=O)[O-])nn1 | SRB | 10 µM, 48 h | – | growth percent | 61.9% |
| CCC(=C(c1ccc(Cl)cc1)c1ccc(OCCCN(C)C)cc1)c1ccc(OC)cc1 | cell growth or viability, SRB | – | – | GI50 | 6560 nM |

Some of these lines once more:
| SMILES | test | conditions | how to read | measurement | value |
| --- | --- | --- | --- | --- | --- |
| CCC(=C(c1ccc(Cl)cc1)c1ccc(OCCCN(C)C)cc1)c1ccc(OC)cc1 | cell growth or viability, SRB | – | – | GI50 | 6560 nM |
